# Published values from different studies.
# Protocols differ between the studies behind these lines. Values joined by “and” are separate records of one study, mostly repeats; a detail may differ. ± gives the spread as reported.
Structure (SMILES),test,test system,setting,how to read,quantity,value
Cc1cn(-c2cc(NC(=O)c3ccc(C)c(Nc4nccc(-c5cccnc5)n4)c3)cc(C(F)(F)F)c2)cn1,,human patients,"dose not given, 6 months vs baseline","baseline: placebo, direction not given",ADAS-Cog score change,-3
Clc1cc2c(cc1Cl)Oc1cc(Cl)c(Cl)cc1O2,untargeted metabolomics,"Sprague-Dawley rat, female, urine",dose not given,baseline: vehicle,number of changed metabolites,941
CCOc1cccc(-c2nnc(Cn3c(SCC)nc4ccccc43)o2)c1O,"relaxation, calcium antagonist",isolated rabbit jejunum,together with: 80 mM K+ contraction,,EC50,0.3 ± 0.09 µg/mL
CN1CCN(S(=O)(=O)c2cc([N+](=O)[O-])ccc2N(CCOS(C)(=O)=O)CCOS(C)(=O)=O)CC1,,"NSG mice, sample CD PDX","intraperitoneal, 25 mg/kg weekly x3",baseline: vehicle,EFS delay (T-C),66.6 days
CC[C@@H](C)[C@@H](NC(=O)[C@@H](Cc1ccc(O)cc1)NC(=O)[C@H]1CCCN1C(=O)[C@@H](CCCNC(=N)N)NC(=O)[C@H](N)Cc1c[nH]cn1)C(=O)N[C@H](C)C(=O)N[C@H](Cc1c[nH]cn1)C(=O)N[C@H](CCCNC(=N)N)C(=O)N[C@H](CCCCNC(=O)c1cccc(S(=O)(=O)F)c1)C(=O)N[C@H](Cc1ccc(O)cc1)C(=O)N[C@H](CO)C(=O)N[C@H](Cc1ccccc1)C(N)=O,flow cytometry,"mouse orthotopic GL261-Luc glioma, brain tumour","dose not given, 2 weeks treatment",baseline: CD45+ cells,CD8+ T cells,64%
CCN1[C@@H](C(=O)NC23CCC(C(=O)O)(CC2)CC3)[C@H](c2cccc(Cl)c2F)[C@]2(C(=O)Nc3cc(Cl)ccc32)C12CCCCC2,,patients with advanced solid tumours,"100 mg, 24 h after dose",baseline: before dosing,serum MIC-1 (GDF-15) level,increased
C[C@H]1O[C@@H](O[C@H]2CC[C@@]3(C)[C@@H](CC[C@]4(C)[C@@H]3C=C[C@]35OC[C@@]6(CCC(C)(C)C[C@H]63)[C@@H](O)C[C@]54C)[C@]2(C)CO)[C@H](O)[C@@H](O[C@@H]2O[C@H](CO)[C@@H](O)[C@H](O)[C@H]2O)[C@H]1O,,"Mus musculus, pair-fed, AAV8-TBG-Null vector, serum","oral, high dose, 5 h",,triglycerides,0.448 mM and 0.582 mM and 0.353 mM and 0.725 mM and 0.42 mM and 0.826 mM
CC[C@H](C)[C@@H]1NC(=O)[C@@H]2CCCN2C(=O)[C@H](CC(C)C)NC(=O)[C@H](CC(C)C)NC(=O)CNC(=O)[C@@H](NC(=O)[C@@H](NC(=O)[C@H](CC(=O)O)NC(=O)CNC(=O)[C@@H](NC(=O)[C@H](C)NC(=O)CNC(=O)[C@H](CCCCN)NC(=O)[C@H](CC(C)C)NC(=O)[C@H](CC(C)C)NC(=O)[C@H](CCCCN)NC(=O)CNC(=O)[C@@H](NC(=O)[C@@H](N)CC(C)C)C(C)C)C(C)C)C(C)C)CSSC[C@@H](C(=O)O)NC1=O,"RNA-seq, item: Klk2-ps mRNA","mouse traumatic brain injury, frontal cortex and hippocampus",dose not given,baseline: TBI plus compound vs TBI,log2 fold change,-4.64
CCCCC1(CCCC)CN(c2ccccc2)c2cc(SC)c(OCC(=O)N[C@@H](C(=O)NCC(=O)O)c3ccccc3)cc2S(=O)(=O)C1,item: HDL cholesterol,"human, serum","20 mg once daily, day 14",,serum HDL-C,53.8 mg/dL
CNC(=O)c1c(C)oc2cc(Oc3ccnc4cc(OCCN5CCOCC5)ccc34)ccc12,DCE-MRI,"human, tumour","4 mg twice daily, day 2",,decrease in Ktrans,31.8%
C[C@]1(CO)Cc2ncn(-c3ccc(C#N)c(Cl)c3)c2C(=O)O1,,"human, plasma","concentration not given, European SRD and MRD studies",,plasma ACTH,no effect
CCSc1nc2ccccc2n1Cc1nnc(-c2ccc(Cl)cc2)o1,"relaxation, calcium antagonist",isolated rabbit jejunum,together with: 80 mM K+ contraction,,EC50,0.45 ± 0.08 µg/mL
C[C@H](N)Cn1ncc2ccc3c(c21)CCCO3.Cl,"agonist, drug discrimination",rhesus monkey trained on DOM,"s.c., 0.1 mg/kg",,maximum DOM-lever responding,100%
C[C@]12CC[C@H](n3ccnc3)CC1=CC[C@@H]1[C@@H]2CC[C@]2(C)C(n3cnc4ccccc43)=CC[C@@H]12,Western blot,"male NRG mouse, CWR22Rv1 xenograft, tumour","dose not given, day 16",,AR-V7 protein level,decreased
Oc1ccc(Cc2ccc(O)cc2)cc1,ABTS radical,,300 µg/mL,,radical scavenging,81.3 ± 2.29%
CCSc1nc2ccccc2n1Cc1nnc(-c2ccc(F)c(OC)c2)o1,"relaxation, calcium antagonist",isolated rabbit jejunum,together with: 80 mM K+ contraction,,EC50,0.45 ± 0.05 µg/mL
O=c1c(O)c(-c2ccc(O[C@@H]3O[C@H](CO)[C@@H](O)[C@H](O)[C@H]3O)c(O)c2)oc2cc(O)cc(O)c12,"Fe3+ reduction, ferricyanide reduction",,30 µg/mL,,absorbance,1.01 ± 0.093
CCSc1nc2ccccc2n1Cc1nnc(-c2ccccc2OC)o1,relaxation,isolated rabbit jejunum,spontaneous contractions,,EC50,0.28 ± 0.01 µg/mL
CC(C)(C)CC(C)(C)c1ccc(OCCOCC[N+](C)(C)Cc2ccccc2)cc1,fEPSP,"male C57BL/6J mouse, hippocampal slices, Schaffer collateral-CA1","0.3 to 10000 nM, interpulse interval 50 ms",,paired-pulse facilitation,no effect
CCCCCCCCCCCCCC(=O)N[C@@H](CO)C(=O)N[C@@H](C)C(=O)N[C@H](C(=O)N[C@@H](CO)C(=O)N[C@@H](Cc1ccccc1)C(=O)N1CCC[C@H]1C(=O)N1CCC[C@H]1C(=O)N[C@@H](CO)C(=O)N[C@@H](Cc1ccc(O)cc1)C(=O)N[C@@H](CC(=O)O)C(=O)N[C@@H](CO)C(=O)N[C@H](C(=O)N[C@@H](C)C(=O)N[C@@H](CCCNC(=N)N)C(=O)NCC(=O)O)C(C)C)[C@@H](C)O,"action potential firing, whole-cell current clamp","cultured DRG neurons, rat",,,IC50,928 nM
